Published values gathered from unrelated publications.
“And” joins repeats or separate records; there may be more than shown. Numbers after ± are the reported error.

Compound	target or system	assay	test system	setting	scale	measurement	value
CC1(C)C(/C=C(\Cl)C(F)(F)F)C1C(=O)OC(C#N)c1cccc(Oc2ccccc2)c1 (stereo not shown)	–	measured: CYP2C9	human, age 1 year	–	–	enzyme contribution to clearance	0.48%
C[C@]1(CO)Cc2ncn(-c3ccc(C#N)c(Cl)c3)c2C(=O)O1	–	–	healthy Japanese adults, plasma	3 mg once daily, after first dose, multiple dose	–	Tmax	0.5 h
C=CC(=O)N[C@H]1C=C(C)c2c(-c3cnc4ccccc4c3)c3c(N)ncnc3n2C1	–	–	male Han Wistar rat, brain	intravenous infusion, 2 µmol/kg/h, 4 h	baseline: plasma	tissue/plasma ratio	0.023 ± 0.01
CN1CC[C@@H](c2c(O)cc(O)c3c(=O)cc(-c4ccc(C(F)(F)F)cc4Cl)oc23)[C@@H]1CO	–	measured: Thrombocytopenia	relapsed B-cell malignancies or AML	oral, 50 mg, grade 3-4, continuous dosing	–	patients with adverse event	0%
C=C(CN(C(=O)c1c(C(F)F)nn(C)c1F)C1CC1)c1ccc(Cl)cc1Cl	–	static acute toxicity test	zebrafish (Brachydanio rerio)	1.00 mg a.i./L, 96 h	–	mortality	50%
CC(C)(O)c1cc(Nc2cc(Oc3cn(C4CC4)nc3C3CCOCC3)ccn2)ccn1	–	Cough	advanced cancer patients, dose escalation	oral, dose not given, 2 weeks on/off, all causality grade ≥3	–	treatment-emergent adverse events	0%
CCN(CC)CCNC(=O)c1[nH]c2ccccc2c1Sc1ccc(Cl)cc1	Vero-E6	CellTiter-Glo ATP	–	concentration not given, 72 h, second round 5-point	baseline: DMSO 0%, hyamine -100%, more negative, more toxic	cytotoxicity efficacy	0%
CC[C@H](C)[C@@H]([C@@H](CC(=O)N1CCC[C@H]1[C@H](OC)[C@@H](C)C(=O)N[C@@H](Cc1ccccc1)C(=O)O)OC)N(C)C(=O)[C@@H](NC(=O)[C@H](C(C)C)N(C)C)C(C)C	–	measured: compound-HPA	Sprague Dawley rat, feces	intravenous, dose not given, 120 h, dosed as NaPi2b ADC, recovery-corrected	baseline: payload dose	excreted in feces	25.4%
CC(C)C[C@H](NC(=O)[C@H](CCCCN)NC(=O)OCC1c2ccccc2-c2ccccc21)C(=O)N[C@H](C(=O)N[C@@H](Cc1ccccc1)C(=O)N[C@@H](Cc1ccccc1)C(=O)N[C@@H](CCCCN)C(=O)NCC(=O)N[C@@H](Cc1ccccc1)C(=O)N[C@@H](C)C(=O)N[C@@H](Cc1c[nH]c2ccccc12)C(=O)N[C@@H](CC(N)=O)C(=O)N[C@H](C(=O)N[C@H]1CSSC[C@@H](C(=O)N[C@@H](Cc2c[nH]cn2)C(=O)N[C@@H](CCCNC(=N)N)C(=O)N[C@@H](CCCNC(=N)N)C(=O)N[C@@H](C)C(=O)N[C@@H](CC(N)=O)C(N)=O)NC(=O)[C@H](C(C)C)NC(=O)[C@H](CCCNC(=N)N)NC(=O)[C@H](C(C)C)NC(=O)CNC(=O)[C@H](CC(N)=O)NC(=O)[C@H](CCCNC(=N)N)NC(=O)[C@H](Cc2ccc(O)cc2)NC(=O)[C@H](C(C)C)NC1=O)C(C)C)C(C)C	–	–	ICR mouse, blood	intramammary, 10 mg/kg, day 5, 3 d dosing	–	basophils	1.57 ± 0.18%
COc1cc(C2C3=C(COC3=O)N(CCO)c3cc4c(cc32)CCC4)cc(OC)c1OC (stereo not shown)	–	–	female C57BL/6 mice	intraperitoneal, 100 mg/kg, 24 h, single dose, mean	–	body weight	20.7 g
CC[C@H](C)[C@H](NC(=O)[C@H](Cc1ccccc1)NC(=O)[C@H](CCC(=O)O)NC(=O)[C@H](CCCCNC(=O)COCCOCCNC(=O)COCCOCCNC(=O)CC[C@H](NC(=O)CCCCCCCCCCCCCCCCC(=O)O)C(=O)O)NC(=O)[C@H](C)NC(=O)[C@H](C)NC(=O)[C@H](CCC(N)=O)NC(=O)CNC(=O)[C@H](CCC(=O)O)NC(=O)[C@H](CC(C)C)NC(=O)[C@H](Cc1ccc(O)cc1)NC(=O)[C@H](CO)NC(=O)[C@H](CO)NC(=O)[C@@H](NC(=O)[C@H](CC(=O)O)NC(=O)[C@H](CO)NC(=O)[C@@H](NC(=O)[C@H](Cc1ccccc1)NC(=O)[C@@H](NC(=O)CNC(=O)[C@H](CCC(=O)O)NC(=O)C(C)(C)NC(=O)[C@@H](N)Cc1cnc[nH]1)[C@@H](C)O)[C@@H](C)O)C(C)C)C(=O)N[C@@H](C)C(=O)N[C@@H](Cc1c[nH]c2ccccc12)C(=O)N[C@@H](CC(C)C)C(=O)N[C@H](C(=O)N[C@@H](CCCNC(=N)N)C(=O)NCC(=O)N[C@@H](CCCNC(=N)N)C(=O)NCC(=O)O)C(C)C	–	–	healthy men and women	oral, 14 mg once daily, with SNAC, median	–	tmax at steady state	2.1 h
NCCCC[C@@H]1NC(=O)[C@@H](Cc2c[nH]c3ccccc23)NC(=O)[C@H](c2ccccc2)NC(=O)[C@@H]2C[C@@H](OC(=O)NCCN)CN2C(=O)[C@H](Cc2ccccc2)NC(=O)[C@H](Cc2ccc(OCc3ccccc3)cc2)NC1=O	–	–	healthy volunteers	subcutaneous, 1950 µg twice daily, day 5, 4.00 h	–	QTcI change from baseline	11.3 ms
O=C(c1ccc(F)c(F)c1Nc1ccc(I)cc1F)N1CC(O)([C@@H]2CCCCN2)C1	–	–	human	oral, 1.33 mg/kg	–	duration of first chorioretinopathy DLT	8 days
Cn1cncc1-c1c(F)cncc1NC(=O)c1c(N)nn2cc(F)cnc12	–	–	human patients	oral, 220 mg once daily, 21 days, 2 weeks on 1 week off	–	patients with upper GI haemorrhage DLT	0%
CC(=O)c1c(C)c2cnc(Nc3ccc(C4CCN(CCS(C)(=O)=O)CC4)cn3)nc2n(C2CCCC2)c1=O	–	–	human, plasma	oral, 75 mg twice daily, day 1, single dose, added: letrozole	–	k_el	3.89e-05 s⁻¹
COc1cccc(Oc2ccccc2NC(=O)CNC(=O)c2cccc3ccccc23)c1	–	–	esterase-deficient SCID mice, male	oral, 40 mg/kg/day, 14 days, toxicity study	–	bicarbonate (total CO2)	18 mmol/L and 20 mmol/L and 17 mmol/L

Compound	target or system	assay	test system	setting	scale	measurement	value
COc1ncnn2ccc(-c3cnc4nc(C)n(Cc5nnc([C@@H](C)F)o5)c4c3)c12	–	–	human patients	oral, dose not given, grade 1 adverse drug reaction	–	incidence of Diarrhea	7.1%
CCCCCCCCCCCCCCCC(=O)N[C@@H](CCC(=O)NCCCC[C@H](NC(=O)[C@H](CC(=O)O)NC(=O)[C@H](CO)NC(=O)[C@@H](NC(=O)[C@H](Cc1ccccc1)NC(=O)[C@@H](NC(=O)CNC(=O)[C@H](CCC(N)=O)NC(=O)[C@H](CO)NC(=O)[C@@H](N)Cc1c[nH]cn1)[C@@H](C)O)[C@@H](C)O)C(=O)N[C@@H](CO)C(=O)N[C@@H](CCC(=O)O)C(=O)N[C@@H](Cc1ccc(O)cc1)C(=O)N[C@@H](CC(C)C)C(=O)N[C@@H](CC(=O)O)C(=O)N[C@@H](CO)C(=O)N[C@@H](CCC(=O)O)C(=O)N[C@@H](CCCNC(=N)N)C(=O)N[C@@H](C)C(=O)N[C@@H](CCCNC(=N)N)C(=O)N[C@@H](CC(=O)O)C(=O)N[C@@H](Cc1ccccc1)C(=O)N[C@H](C(=O)N[C@@H](C)C(=O)N[C@@H](Cc1c[nH]c2ccccc12)C(=O)N[C@@H](CC(C)C)C(=O)N[C@@H](CCC(=O)O)C(=O)N[C@@H](C)C(=O)NCC(=O)NCC(=O)O)C(C)C)C(=O)O	–	–	human, CrCl ≥ 90 mL/min	sc, 100 µg single dose	–	injection site bruising	0%
CN(C(=O)n1cnc(-c2ccc[n+]([O-])c2)c1)C1CCCCC1	–	–	Wistar rat, medulla oblongata	oral, 10 mg/kg, 24 h, single dose	–	concentration	9.5 ± 0.4 ng/g
COc1ncccc1-c1cnn2ccc(N3CCN(C(=O)OC(C)C)CC3)nc12	–	–	mouse, SNL model, plasma	oral, 10 mg/kg, 30 min	–	free drug concentration	79 nM
C=CCNc1c(O)cc2c(O)c1C[C@@H](C)C[C@H](OC)[C@H](O)[C@@H](C)/C=C(\C)[C@H](OC(N)=O)[C@@H](OC)/C=C\C=C(/C)C(=O)N2	–	–	human unresectable metastatic GIST or sarcoma	intravenous, dose not given	–	discontinuation due to death	3.7%
C[C@@H](NC(=O)N1C(=O)[C@H](Cc2ccnc(N)c2)[C@H]1C(=O)O)C1CCCCC1	–	–	healthy adult Chinese volunteers	continuous intravenous infusion, 1.0 mg/kg/h, 5-day infusion, CTCAE 5.0 grading	–	incidence of AEs leading to discontinuation	0%
N=C(N)NCCC[C@@H](NC(=O)[C@@H](N)Cc1ccccc1)C(=O)N[C@@H](Cc1ccccc1)C(=O)N[C@@H](CCCCN)C(N)=O	–	LC-MS	human	25 mg, 23.83 h	–	mean fraction excreted in urine	1.78%
COc1cc2c(Oc3ccc4[nH]c(C)cc4c3F)ccnc2cc1OCC1(N)CC1	–	–	paediatric recurrent refractory sarcoma	8 mg	–	grade 1 or 2 Hematochezia	0%
CCC[C@@](N)(CO)CCc1ccc(OCCCCCC(C)C)cc1	–	–	dog, male hounds, plasma	oral capsule, 15 mg/kg, geometric mean	–	AUC(0-inf)	16.9 µM·h
COc1ccc([C@@H]2CC(=O)c3c(O)cc(O)cc3O2)cc1O	–	–	male Sprague-Dawley rat, lean	oral, 100 mg/kg of neohesperidin, 24 to 36 h	–	faecal excreted amount	202 ± 161 ng
C[C@]1(O)C[C@@](N)(c2ccc(-c3nc4n(c3-c3ccccc3)COc3ccncc3-4)cc2)C1	–	–	human, advanced or metastatic solid tumours	once daily, dose escalation total, any grade	–	patients with Stomatitis TEAE	0%
CC(C)n1c(C2CCNCC2)nc2c([N+](=O)[O-])c(Br)c(Br)cc21	–	–	patients with AML	125 mg, accidental overdose	–	AE leading to interruption	2%
CCN1[C@@H](C(=O)NC23CCC(C(=O)O)(CC2)CC3)[C@H](c2cccc(Cl)c2F)[C@]2(C(=O)Nc3cc(Cl)ccc32)C12CCCCC2	–	–	patients with advanced solid tumours	oral, dose not given, all doses	–	Thrombocytopenia incidence	52.4%
Cn1cc(CN2CCCC(COc3ccccc3C(=O)N3CCCCC3)C2)c2ccccc21 (stereo not shown)	Vero-E6	CellTiter-Glo ATP	–	concentration not given, 72 h, first round 5-point	baseline: DMSO 0%, hyamine -100%, more negative, more toxic	cytotoxicity efficacy	0%
CO[C@H]1C[C@@H]2CC[C@@H](C)[C@@](O)(O2)C(=O)C(=O)N2CCCC[C@H]2C(=O)O[C@H]([C@H](C)C[C@@H]2CC[C@@H](OC(=O)NCCOCCOCCOCCOCCOCCOCCOCCOCCC(=O)N3CCc4cc(Cn5nc(-c6ccc7oc(N)nc7c6)c6c(N)ncnc65)ccc4C3)[C@H](OC)C2)C[C@@H](O)[C@H](C)/C=C(\C)[C@@H](O)[C@@H](OC)C(=O)[C@H](C)C[C@H](C)/C=C/C=C/C=C/1C	–	–	patients with advanced solid tumours	intravenous, 8 mg weekly, any grade	–	maculopapular rash incidence	25%

Some of these lines once more:
Compound	target or system	assay	test system	setting	scale	measurement	value
O=C(c1ccc(F)c(F)c1Nc1ccc(I)cc1F)N1CC(O)([C@@H]2CCCCN2)C1	–	–	human	oral, 1.33 mg/kg	–	duration of first chorioretinopathy DLT	8 days
Cn1cncc1-c1c(F)cncc1NC(=O)c1c(N)nn2cc(F)cnc12	–	–	human patients	oral, 220 mg once daily, 21 days, 2 weeks on 1 week off	–	patients with upper GI haemorrhage DLT	0%
